# Measured values gathered from unrelated publications.
# Parts stem from different laboratories: compare values within a part only.
# UniProt Q09013, sequence (whole entry, looked up): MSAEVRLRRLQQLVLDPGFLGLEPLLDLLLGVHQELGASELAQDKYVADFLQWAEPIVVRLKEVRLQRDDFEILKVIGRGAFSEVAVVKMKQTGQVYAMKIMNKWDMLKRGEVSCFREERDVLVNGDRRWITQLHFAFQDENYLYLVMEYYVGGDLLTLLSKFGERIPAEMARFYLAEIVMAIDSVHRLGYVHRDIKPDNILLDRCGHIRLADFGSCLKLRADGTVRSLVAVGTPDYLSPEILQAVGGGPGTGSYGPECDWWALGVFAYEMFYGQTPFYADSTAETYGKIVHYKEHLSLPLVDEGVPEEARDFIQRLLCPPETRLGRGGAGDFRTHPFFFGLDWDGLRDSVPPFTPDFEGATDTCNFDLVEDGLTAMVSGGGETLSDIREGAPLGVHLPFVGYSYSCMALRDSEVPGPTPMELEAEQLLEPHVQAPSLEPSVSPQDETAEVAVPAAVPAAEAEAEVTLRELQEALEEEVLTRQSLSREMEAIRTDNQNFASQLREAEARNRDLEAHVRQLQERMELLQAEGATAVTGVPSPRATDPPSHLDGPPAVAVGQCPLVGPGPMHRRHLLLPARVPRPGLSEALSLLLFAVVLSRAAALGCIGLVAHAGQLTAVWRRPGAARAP
# UniProt Q9NR20, sequence (whole entry, looked up): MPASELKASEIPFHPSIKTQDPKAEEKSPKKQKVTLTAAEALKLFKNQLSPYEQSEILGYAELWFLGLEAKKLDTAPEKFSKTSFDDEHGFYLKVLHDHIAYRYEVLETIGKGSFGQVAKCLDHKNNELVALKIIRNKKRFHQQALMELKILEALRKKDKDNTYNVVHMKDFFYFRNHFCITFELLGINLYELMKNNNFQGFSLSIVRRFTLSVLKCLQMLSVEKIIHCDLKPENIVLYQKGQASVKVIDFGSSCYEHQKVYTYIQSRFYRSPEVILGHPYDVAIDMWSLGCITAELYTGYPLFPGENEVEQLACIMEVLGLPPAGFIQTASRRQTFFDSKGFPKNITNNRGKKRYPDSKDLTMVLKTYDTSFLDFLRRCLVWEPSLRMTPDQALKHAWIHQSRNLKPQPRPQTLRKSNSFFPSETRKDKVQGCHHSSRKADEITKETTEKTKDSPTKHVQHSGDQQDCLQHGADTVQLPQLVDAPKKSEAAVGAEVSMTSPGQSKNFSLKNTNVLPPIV
# UniProt Q16584, sequence (whole entry, looked up): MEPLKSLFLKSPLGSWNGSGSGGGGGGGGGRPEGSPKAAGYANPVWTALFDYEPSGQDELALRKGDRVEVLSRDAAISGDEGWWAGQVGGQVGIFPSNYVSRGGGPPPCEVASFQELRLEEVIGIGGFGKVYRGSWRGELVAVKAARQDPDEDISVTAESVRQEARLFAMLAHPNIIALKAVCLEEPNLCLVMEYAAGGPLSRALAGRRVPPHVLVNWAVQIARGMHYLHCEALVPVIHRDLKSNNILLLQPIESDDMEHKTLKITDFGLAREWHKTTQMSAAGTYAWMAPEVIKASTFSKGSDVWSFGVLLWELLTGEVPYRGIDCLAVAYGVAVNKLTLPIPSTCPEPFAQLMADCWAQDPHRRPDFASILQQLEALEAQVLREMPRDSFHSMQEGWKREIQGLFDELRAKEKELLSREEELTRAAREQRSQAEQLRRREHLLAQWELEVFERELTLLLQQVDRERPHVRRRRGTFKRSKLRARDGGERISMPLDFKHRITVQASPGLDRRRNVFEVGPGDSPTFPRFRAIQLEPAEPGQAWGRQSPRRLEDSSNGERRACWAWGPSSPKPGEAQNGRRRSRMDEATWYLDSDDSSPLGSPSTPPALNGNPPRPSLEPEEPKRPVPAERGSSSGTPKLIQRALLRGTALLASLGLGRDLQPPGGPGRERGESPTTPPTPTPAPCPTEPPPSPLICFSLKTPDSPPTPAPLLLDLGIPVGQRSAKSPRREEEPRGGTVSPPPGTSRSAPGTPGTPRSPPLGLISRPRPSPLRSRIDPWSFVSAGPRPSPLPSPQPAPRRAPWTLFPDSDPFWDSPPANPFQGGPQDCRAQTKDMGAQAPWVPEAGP
# UniProt Q13555, sequence (whole entry, looked up): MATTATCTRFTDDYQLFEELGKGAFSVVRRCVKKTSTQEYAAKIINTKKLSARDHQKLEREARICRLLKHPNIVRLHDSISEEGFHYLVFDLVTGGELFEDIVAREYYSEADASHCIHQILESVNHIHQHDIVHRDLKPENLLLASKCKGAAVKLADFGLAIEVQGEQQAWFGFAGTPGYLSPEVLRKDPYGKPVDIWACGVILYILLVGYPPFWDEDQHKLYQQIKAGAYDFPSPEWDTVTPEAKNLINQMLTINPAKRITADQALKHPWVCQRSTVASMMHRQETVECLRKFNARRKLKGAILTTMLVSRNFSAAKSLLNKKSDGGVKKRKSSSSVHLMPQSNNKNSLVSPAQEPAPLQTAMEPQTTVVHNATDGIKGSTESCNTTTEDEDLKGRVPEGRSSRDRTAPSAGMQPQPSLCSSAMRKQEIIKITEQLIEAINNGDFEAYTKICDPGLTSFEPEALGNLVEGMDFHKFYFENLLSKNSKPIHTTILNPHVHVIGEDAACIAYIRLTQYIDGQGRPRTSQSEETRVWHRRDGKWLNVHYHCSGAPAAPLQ
# UniProt P53779, sequence (whole entry, looked up): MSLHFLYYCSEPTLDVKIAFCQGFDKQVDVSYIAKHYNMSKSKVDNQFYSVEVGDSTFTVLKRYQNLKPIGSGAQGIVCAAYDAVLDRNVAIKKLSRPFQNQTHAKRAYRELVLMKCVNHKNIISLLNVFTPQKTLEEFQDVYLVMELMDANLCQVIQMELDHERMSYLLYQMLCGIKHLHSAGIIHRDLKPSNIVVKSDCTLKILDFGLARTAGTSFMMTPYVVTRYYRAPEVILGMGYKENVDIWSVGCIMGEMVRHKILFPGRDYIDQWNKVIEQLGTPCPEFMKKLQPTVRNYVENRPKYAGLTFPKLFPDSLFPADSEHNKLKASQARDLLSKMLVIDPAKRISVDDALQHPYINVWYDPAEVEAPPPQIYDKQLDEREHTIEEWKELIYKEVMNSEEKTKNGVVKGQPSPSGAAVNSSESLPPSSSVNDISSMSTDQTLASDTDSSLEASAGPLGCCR
# UniProt O94768, sequence (whole entry, looked up): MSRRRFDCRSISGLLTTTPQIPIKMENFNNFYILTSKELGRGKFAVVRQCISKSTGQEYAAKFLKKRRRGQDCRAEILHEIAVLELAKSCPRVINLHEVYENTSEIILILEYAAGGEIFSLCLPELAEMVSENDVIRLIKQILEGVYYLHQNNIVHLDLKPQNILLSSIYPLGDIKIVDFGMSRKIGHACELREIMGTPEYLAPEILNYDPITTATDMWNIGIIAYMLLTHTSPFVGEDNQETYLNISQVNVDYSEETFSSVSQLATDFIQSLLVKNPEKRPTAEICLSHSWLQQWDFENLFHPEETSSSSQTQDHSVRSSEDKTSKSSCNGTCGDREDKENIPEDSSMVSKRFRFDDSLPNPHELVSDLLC
# UniProt P34947, sequence (whole entry, looked up): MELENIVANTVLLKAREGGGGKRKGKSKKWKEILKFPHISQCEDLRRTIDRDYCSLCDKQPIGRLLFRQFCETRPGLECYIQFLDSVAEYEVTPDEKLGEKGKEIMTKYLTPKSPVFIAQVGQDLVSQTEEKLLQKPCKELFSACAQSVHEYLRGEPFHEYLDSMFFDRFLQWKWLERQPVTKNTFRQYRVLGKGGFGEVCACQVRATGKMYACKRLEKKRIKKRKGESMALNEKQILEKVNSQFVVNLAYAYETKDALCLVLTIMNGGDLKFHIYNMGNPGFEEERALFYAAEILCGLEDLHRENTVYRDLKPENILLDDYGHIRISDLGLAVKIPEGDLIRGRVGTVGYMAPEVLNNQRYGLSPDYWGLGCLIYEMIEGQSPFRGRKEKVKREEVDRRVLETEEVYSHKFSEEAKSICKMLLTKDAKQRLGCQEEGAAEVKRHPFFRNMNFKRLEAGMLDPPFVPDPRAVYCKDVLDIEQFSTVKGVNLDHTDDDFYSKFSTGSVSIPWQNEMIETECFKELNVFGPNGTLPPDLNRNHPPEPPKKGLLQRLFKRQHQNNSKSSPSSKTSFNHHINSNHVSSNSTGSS
# UniProt P50613, sequence (whole entry, looked up): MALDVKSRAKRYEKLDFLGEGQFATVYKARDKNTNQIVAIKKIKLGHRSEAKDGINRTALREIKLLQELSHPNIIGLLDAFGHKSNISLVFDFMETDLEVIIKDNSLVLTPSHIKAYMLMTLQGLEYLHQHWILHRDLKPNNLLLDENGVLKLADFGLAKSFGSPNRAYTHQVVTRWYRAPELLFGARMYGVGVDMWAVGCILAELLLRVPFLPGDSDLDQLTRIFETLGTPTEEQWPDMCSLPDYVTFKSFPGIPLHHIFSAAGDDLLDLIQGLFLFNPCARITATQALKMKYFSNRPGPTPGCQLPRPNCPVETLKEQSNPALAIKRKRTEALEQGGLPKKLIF
# UniProt P19784, sequence (whole entry, looked up): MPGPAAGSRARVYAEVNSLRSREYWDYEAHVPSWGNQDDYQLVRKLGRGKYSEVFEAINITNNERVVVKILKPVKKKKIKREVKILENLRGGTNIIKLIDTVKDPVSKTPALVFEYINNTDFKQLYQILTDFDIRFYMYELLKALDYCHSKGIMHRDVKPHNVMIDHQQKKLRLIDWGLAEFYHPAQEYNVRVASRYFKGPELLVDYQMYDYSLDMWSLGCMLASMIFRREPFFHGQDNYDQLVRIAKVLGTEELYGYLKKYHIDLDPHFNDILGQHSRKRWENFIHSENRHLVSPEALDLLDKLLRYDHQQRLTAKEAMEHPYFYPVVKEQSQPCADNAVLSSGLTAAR

# Study 1 — read-out: cell-free assay; technique: competition with immobilised ligand; tested at: 0.1 µM
# Compound: CS(=O)(=O)N1CCCC(NC(=O)[C@H](CCC2CCCCC2)NC(=O)c2ccc(CNc3ncnc4c3nnn4-c3ccccc3)cc2)C1 (some centres unmarked)
target,remaining binding [%]
"Myotonin-protein kinase (DMPK, Homo sapiens, UniProt Q09013)",100
"Serine/threonine-protein kinase 17B (STK17B, Homo sapiens, UniProt O94768)",100
"Mitogen-activated protein kinase kinase kinase 11 (MAP3K11, Homo sapiens, UniProt Q16584)",92
"Casein kinase I isoform epsilon (CSNK1E, Homo sapiens, UniProt P49674)",100
"Wee1-like protein kinase (WEE1, Homo sapiens, UniProt P30291)",72
"Myosin light chain kinase, smooth muscle (MYLK, Homo sapiens, UniProt Q15746)",100
"Calcium/calmodulin-dependent protein kinase kinase 2 (CAMKK2, Homo sapiens, UniProt Q96RR4)",78
"Cyclin-dependent kinase-like 1 (CDKL1, Homo sapiens, UniProt Q00532)",71

# Study 2 — read-out: enzyme activity; mode: inhibitor; tested at: 0.5 µM
# SMILES: COc1cc2nccc(Oc3ccc(NC(=S)NC(=O)c4ccccc4C)cc3)c2cc1OC
target,scale,remaining activity [%]
"Mitogen-activated protein kinase 10 (MAPK10, Homo sapiens, UniProt P53779)",relative to: control,98.7
"Casein kinase II subunit alpha' (CSNK2A2, Homo sapiens, UniProt P19784)",relative to: control,96.6
"Cyclin-dependent kinase 7 (CDK7, Homo sapiens, UniProt P50613)",relative to: control,97.7
"Serine/threonine-protein kinase Nek9 (NEK9, Homo sapiens, UniProt Q8TD19)",relative to: control,103
"Myosin-IIIb (MYO3B, Homo sapiens, UniProt Q8WXR4)",,83.4
"Dual specificity tyrosine-phosphorylation-regulated kinase 4 (DYRK4, Homo sapiens, UniProt Q9NR20)",relative to: control,92.7
"Proto-oncogene tyrosine-protein kinase ROS (ROS1, Homo sapiens, UniProt P08922)",relative to: control,26.7
"Myotonin-protein kinase (DMPK, Homo sapiens, UniProt Q09013)",relative to: control,102
"Calcium/calmodulin-dependent protein kinase type 1D (CAMK1D, Homo sapiens, UniProt Q8IU85)",relative to: control,72.5
"Serine/threonine-protein kinase N2 (PKN2, Homo sapiens, UniProt Q16513)",relative to: control,109
"Protein-tyrosine kinase 2-beta (PTK2B, Homo sapiens, UniProt Q14289)",relative to: control,93.4
"STE20-like serine/threonine-protein kinase (SLK, Homo sapiens, UniProt Q9H2G2)",relative to: control,6.2
"G protein-coupled receptor kinase 5 (GRK5, Homo sapiens, UniProt P34947)",relative to: control,98.8

# Study 3 — species: human; matrix: microsomes or S9; tested at: 2 µM; time: 0.5 h
Structure (SMILES),remaining compound [%]
COc1cc(=O)n(C)cc1C(=O)N1CCc2c(cnc3cc(C)nn23)C1,> 99
CCOc1ccc(C2=NNC(c3cccnc3)=Nc3ccc(CC)cc32)cc1OCC,42.9
CCOc1cccc2c1OC1(CCN(CC)CC1)N1N=C(c3ccccc3)CC21 (centres unmarked),69.6
CC(=O)CC1c2ccc(Br)cc2NC(C)(C)C(=O)N1OCc1ccccc1 (centres unmarked),91.2
c1nc(N2CCN(C3CCCCC3)CC2)c2nc[nH]c2n1,97.1
O=C(NOCc1ccccc1)c1ccc2c(c1)NC(CCNS(=O)(=O)c1ccc(F)cc1)C(=O)N2 (centres unmarked),107
Cc1cc2c(cc1S(=O)(=O)N(C)CC(=O)N(C)Cc1ccco1)OC(C)C(=O)N2 (centres unmarked),6.55

# Mixed results
Structure (SMILES),target,assay,endpoint,result
Cc1cc(-c2ccc(/N=N/c3ccc4c(S(=O)(=O)O)cc(S(=O)(=O)O)c(N)c4c3O)c(C)c2)ccc1/N=N/c1ccc2c(S(=O)(=O)O)cc(S(=O)(=O)O)c(N)c2c1O,"Calcium/calmodulin-dependent protein kinase type II subunit gamma (CAMK2G, Homo sapiens, UniProt Q13555)","enzyme activity, inhibitor",IC50,971 nM

# Repeated from above (study 2):
target,scale,remaining activity [%]
"Myosin-IIIb (MYO3B, Homo sapiens, UniProt Q8WXR4)",,83.4
"Dual specificity tyrosine-phosphorylation-regulated kinase 4 (DYRK4, Homo sapiens, UniProt Q9NR20)",relative to: control,92.7
